Assay results of several laboratories.
Numbered parts are unrelated; each lists some results of a single study.

Study 1 — technique: universal PBM; form: double-stranded DNA, one strand shown; matrix: in vitro; tested at: 600 nM; direction: higher = stronger binding
Target: Sal-like protein 4, full length isoform A (SALL4, Homo sapiens, UniProt Q9UJQ4, residues 1-1053)
Chain of UniProt Q9UJQ4 (whole entry, looked up): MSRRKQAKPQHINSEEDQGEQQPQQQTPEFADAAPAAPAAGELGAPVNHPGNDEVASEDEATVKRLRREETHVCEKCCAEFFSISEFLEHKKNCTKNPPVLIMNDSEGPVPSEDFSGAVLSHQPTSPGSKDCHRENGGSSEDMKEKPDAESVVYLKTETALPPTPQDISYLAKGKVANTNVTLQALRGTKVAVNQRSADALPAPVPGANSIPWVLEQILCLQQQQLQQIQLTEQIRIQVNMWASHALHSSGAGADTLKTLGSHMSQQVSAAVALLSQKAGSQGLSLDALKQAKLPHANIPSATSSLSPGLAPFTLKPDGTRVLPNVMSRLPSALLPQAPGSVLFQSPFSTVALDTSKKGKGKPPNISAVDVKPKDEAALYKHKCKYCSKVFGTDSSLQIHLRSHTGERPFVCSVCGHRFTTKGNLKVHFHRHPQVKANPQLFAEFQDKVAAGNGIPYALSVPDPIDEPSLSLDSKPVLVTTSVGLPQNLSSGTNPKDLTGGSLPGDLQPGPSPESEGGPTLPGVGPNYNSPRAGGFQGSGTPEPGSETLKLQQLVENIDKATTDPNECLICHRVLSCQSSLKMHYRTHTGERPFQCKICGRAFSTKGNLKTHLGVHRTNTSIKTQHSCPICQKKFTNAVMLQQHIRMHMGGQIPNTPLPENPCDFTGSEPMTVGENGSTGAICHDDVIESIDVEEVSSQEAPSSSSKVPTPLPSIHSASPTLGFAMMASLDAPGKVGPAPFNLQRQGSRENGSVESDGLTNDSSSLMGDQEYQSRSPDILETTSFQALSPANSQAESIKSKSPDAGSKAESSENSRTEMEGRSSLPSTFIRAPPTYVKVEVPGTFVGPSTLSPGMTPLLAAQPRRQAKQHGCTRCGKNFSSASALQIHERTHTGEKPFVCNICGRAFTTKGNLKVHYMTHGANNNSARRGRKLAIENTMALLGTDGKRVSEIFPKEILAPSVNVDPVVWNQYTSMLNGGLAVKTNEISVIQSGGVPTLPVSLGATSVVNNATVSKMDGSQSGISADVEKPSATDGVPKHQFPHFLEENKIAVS
Notes: 8-mer, flanks averaged, mean of replicates
Oligonucleotide	E-score
TAAATGGA	0.182
ACCCGCGG	-0.315
AGTACATC	0.114
AAGCCTGC	-0.181
ATGGGCTA	0.0905
ATCGGGCA	-0.241
GATACTAA	0.19
ACGCCCCT	-0.289
CCCGTGGC	-0.386
CCGATAGA	0.0146
CACCTGCA	-0.176
CCGTTTCC	-0.112
TACCAGGA	-0.0397
TCCTGTCA	0.0582
ACGTCGGC	-0.277
GCAGACAA	-0.0418
TCATGCAA	0.168

Study 2 — technique: protein-binding microarray; form: double-stranded DNA, one strand shown; matrix: in vitro; tested at: 2200 nM top; notes: 60-bp whole probe; with: salmon DNA 0.4 mg/ml; baseline: random background probes; direction: higher = stronger binding; constant ends, left off below: GCCTAGCAC … GTCTTGATTCGCTTGACGCTGCTG
Target: Interferon regulatory factor 7, full length, phosphomimetic (IRF7, Homo sapiens, UniProt Q92985, residues 1-503, S471D/S472D/S475D/S476D/S477D/S483D/S484D/S487D)
Chain of UniProt Q92985 (whole entry, unmodified, looked up): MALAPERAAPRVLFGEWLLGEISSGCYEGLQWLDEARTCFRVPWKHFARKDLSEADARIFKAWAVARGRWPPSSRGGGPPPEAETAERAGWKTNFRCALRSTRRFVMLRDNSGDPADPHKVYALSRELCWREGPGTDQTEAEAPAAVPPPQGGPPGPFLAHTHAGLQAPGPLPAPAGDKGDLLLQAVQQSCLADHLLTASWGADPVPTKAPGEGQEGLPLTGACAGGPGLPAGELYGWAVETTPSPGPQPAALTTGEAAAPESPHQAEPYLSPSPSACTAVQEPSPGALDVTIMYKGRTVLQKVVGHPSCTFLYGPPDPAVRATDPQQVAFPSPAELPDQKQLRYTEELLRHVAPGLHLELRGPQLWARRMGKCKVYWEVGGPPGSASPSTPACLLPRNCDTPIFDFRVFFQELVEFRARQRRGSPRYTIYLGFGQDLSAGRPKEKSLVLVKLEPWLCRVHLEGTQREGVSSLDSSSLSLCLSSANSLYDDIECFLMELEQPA
Oligonucleotide	fitted relative affinity [z-score]
TCAACGAATTAGAAAGAGCAGTGCTAG	-0.926
TCATTTCTCAGTTTATTACTGTGCTAG	2.42
GTCGATATCAGTTTCGAGACGTGCTAG	3.88
TCATATCCCTAATCTCAGACTGTGCTA	1.23
TTAGATTTCGGGTATCGCTTAGTGCTA	2.83
TTAGGACTGGGTTTGGGTTAGTGCTAG	-0.122
GACGGTTTCCTTTCCCTGAGGTGCTAG	3.85
TCAACTTGTCTTTTCATACTGTGCTAG	1.56
GTAGGTTTCCTTCTCCTTTAGTGCTAG	2.55
TTAGATTTCGGTATCGGTTAGTGCTAG	4.25
GACGAACTGATTTTCGAGACGTGCTAG	2.56
CTAGATTTCAGTATCGATTAGTGCTAG	1.09
TTAGATTTCGGGGATCGATTAGTGCTA	0.941
GACGATATCGGTACTGGAGACGTGCTA	0.0025
TTAGGACTGGGACTGGCTTAGTGCTAG	-1.01
GTCGAACTGAGTCTCGAGACGTGCTAG	0.378
TCATACTTCCCACTGGTACTGTGCTAG	1.86
GACGAACTGGGGTATCTAGACGTGCTA	0.0158
ATTCCTTTGCCTCCAGGCGCGTGCTAG	1.45

Study 3 — technique: competition protein-binding microarray; form: double-stranded DNA, one strand shown; matrix: in vitro; tested at: 2 µM; with: Pho4 competitor, 0.05 µM; direction: higher = stronger binding; constant ends, left off below: … GTCTTGATTCGCTTGACGCTGCTG
Target: Centromere-binding protein 1, full length, His-tagged (CBF1, Saccharomyces cerevisiae, UniProt P17106, residues 1-351)
Chain of UniProt P17106 (whole entry, looked up): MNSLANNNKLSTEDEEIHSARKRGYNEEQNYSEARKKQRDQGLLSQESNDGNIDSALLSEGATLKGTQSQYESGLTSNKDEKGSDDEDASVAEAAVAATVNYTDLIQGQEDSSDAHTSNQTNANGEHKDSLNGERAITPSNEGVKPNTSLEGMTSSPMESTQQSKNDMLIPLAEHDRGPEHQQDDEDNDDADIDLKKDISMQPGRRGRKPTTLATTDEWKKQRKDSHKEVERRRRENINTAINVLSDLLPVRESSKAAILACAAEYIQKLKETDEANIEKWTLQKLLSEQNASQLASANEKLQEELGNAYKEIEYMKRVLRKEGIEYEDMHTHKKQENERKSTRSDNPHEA
Notes: whole 60-bp probe, lowest competitor level
Oligonucleotide	fluorescence intensity
AGTTACTATTTCTGGCTCGTGTAATATATGTATGCT	131 a.u.
TTATCTGACGTCCATCACGTGAAGTGTTTTGCGTAG	2700 a.u.
GACCTTGAATGCTAGAACGTGGAACATGAATTCCAG	107 a.u.
CTTTCCCGATCTTGGCAAGTGGGTGTAGCACATTTG	59.9 a.u.
TCACCAGACAAATATCACCTGGAACCACATCTTTTG	81.2 a.u.
TGCCCGCAGTGGGTCCACGTGAAATGCGAGCCTTTG	366 a.u.
CTTCTGTAAATTTGCACTGTGGGTGGACGCGCCCCG	83.6 a.u.
CATACCCAACCTTTTCACGTGGAGTAAGATATTTGT	573 a.u.
AAAGCGGTAATTTGGGGCGTGGGTGCAGATATCTAT	78.9 a.u.
CGGGGTTAAGTTTGTTTGGTGGGTGGCTTGCAGCAG	80.6 a.u.
CATACCCAACCTTTTCACGTGTTCTAAGATATTTGT	1500 a.u.
AAACGTAGTTACGGCCACGTGGGTAAGATATGAAAG	1310 a.u.
GATTTGAATACAACCGTCGTGCCGAACATCGCGGTT	74.6 a.u.
AAATTACTAAGTTGCTCCGTGGGTGACGCCGTATGA	54.9 a.u.

Study 4 — technique: protein binding microarray; form: double-stranded DNA, one strand shown; matrix: in vitro; tested at: not given; baseline: not given; direction: higher = stronger binding
Target: Histone acetyltransferase KAT6A, both winged helices, GST fusion (KAT6A, Homo sapiens, UniProt Q92794, residues 1-181)
Notes: 8-mer, flanks averaged, mean of 2 arrays, mostly near background
Construct (chain): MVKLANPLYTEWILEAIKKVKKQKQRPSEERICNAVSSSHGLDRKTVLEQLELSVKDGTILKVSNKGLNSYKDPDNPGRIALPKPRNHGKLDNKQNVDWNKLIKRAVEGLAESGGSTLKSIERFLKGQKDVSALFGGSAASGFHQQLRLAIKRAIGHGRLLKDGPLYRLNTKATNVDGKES
Oligonucleotide	E-score
CCACGTAA	-0.0624
ATCTATCA	-0.076
GTCCAGAC	-0.0358
AGATATGA	-0.0302
AGCATCAG	-0.0973
GAGGCACC	-0.0162
CCAGGTCA	-0.227
TATCGTGA	0.00476
AAGGACTA	-0.235
ATAGGGAC	-0.139
ACAGAATA	-0.00775
CTTAGTGC	-0.19
GTACTAAC	0.0444
AACTAGAG	-0.1
CTCGGCTC	0.0585
ATAATCAA	0.0581
GTAATAGA	-0.108
GAGACACA	-0.18
ATGGATGG	-0.142
AGCAAACC	-0.14
AATACGTC	0.0565
CCCGGGGC	0.207
CGCGCGAA	0.35
TAATTCGA	-0.124
AACGCGGC	0.332

For quick reference, copied from above (study 2):
Oligonucleotide	fitted relative affinity [z-score]
GACGAACTGGGGTATCTAGACGTGCTA	0.0158
TCATATCCCTAATCTCAGACTGTGCTA	1.23
TCAACGAATTAGAAAGAGCAGTGCTAG	-0.926
TCATTTCTCAGTTTATTACTGTGCTAG	2.42
TTAGGACTGGGTTTGGGTTAGTGCTAG	-0.122
GTCGAACTGAGTCTCGAGACGTGCTAG	0.378
GACGGTTTCCTTTCCCTGAGGTGCTAG	3.85
TCATACTTCCCACTGGTACTGTGCTAG	1.86
GTCGATATCAGTTTCGAGACGTGCTAG	3.88
GACGATATCGGTACTGGAGACGTGCTA	0.0025
GACGAACTGATTTTCGAGACGTGCTAG	2.56
